Experimental data gathered from unrelated publications.
Lines come from different studies, so protocols differ. Several values in a cell are separate wells, animals, samples, runs or records. ± gives the spread as reported.
Cell line: Vero

O=C1COCCN1c1ccc(CO[C@@H]2COc3nc([N+](=O)[O-])cn3C2)cc1F — IC50 (cytotoxicity): > 100 µg/mL
COc1ccc(/C=C/c2nc(N)[nH]c(=O)c2Br)cc1OC — minimum cytotoxic concentration (cell morphology alteration): > 100 µM
Cc1nn(-c2ccc(Cl)cc2)c2c1C(c1ccc(F)cc1F)C(C#N)=C(N)O2 (stereo not shown) — viability (MTT; 25 µM): 54.4%
N#C[Se]CC1Cc2c(Oc3cccc(F)c3)cccc2O1 (racemic) — EC50 (cell viability, AlamarBlue): > 10 µM
N#Cc1cn([C@@H]2O[C@H](COCc3ccccc3)[C@@H](OCc3ccccc3)[C@H](OCc3ccccc3)[C@H]2I)c(=O)[nH]c1=O — CC50 (MTT; DMEM with 10% FBS; 72 h): > 50 µM
Cn1c(C(=O)Nc2ccc(Cl)cc2)cc2c(=O)n3ccccc3nc21 — viability (MTT; 1.6 µM, 24 (unit not given)): 84.8%
CC[C@@H](C)[C@H]1O[C@@H](c2c(O)c(-c3ccccc3)cn(OC)c2=O)[C@H](C)C[C@@H]1C — IC50 (cytotoxicity, neutral red uptake; 48 h): > 10 µg/mL
Cc1nn(-c2ccc(Cl)cc2)c2c1C(c1ccc(Cl)c(Cl)c1)C(C#N)=C(N)O2 (stereo not shown) — viability (MTT; 100 µM): 46.9%
O=C1CSCCN1c1ccc(CO[C@@H]2COc3nc([N+](=O)[O-])cn3C2)cc1 — IC50 (cytotoxicity): > 100 µg/mL
CCc1ccc(NC(=O)c2cc3c(=O)n4ccccc4nc3n2C)cc1 — viability (MTT; 25 µM, 24 (unit not given)): 63.2%
N#C[Se]CC1Cc2cc(Oc3cccc(F)c3)ccc2O1 (racemic) — EC50 (cell viability, AlamarBlue): > 10 µM
Cc1nn(-c2ccc(Cl)cc2)c2c1C(c1ccc(-c3ccccc3)cc1)C(C#N)=C(N)O2 (stereo not shown) — viability (MTT; 25 µM): 54.1%
CCCc1nc(N)[nH]c(=O)c1Br — minimum cytotoxic concentration (cell morphology alteration): > 100 µM
Cn1c(C(=O)Nc2ccc3c(c2)OCCO3)cc2c(=O)n3ccccc3nc21 — viability (MTT; 0.4 µM, 24 (unit not given)): 87.9%
Nc1nc(CCc2ccccc2)c(Br)c(=O)[nH]1 — minimum cytotoxic concentration (cell morphology alteration): > 100 µM
CC(=O)c1cccc(NC(=O)c2cc3c(=O)n4ccccc4nc3n2C)c1 — viability (MTT; 100 µM, 24 (unit not given)): 44%
Cc1nn(-c2ccc(Cl)cc2)c2c1C(c1c(Cl)cccc1Cl)C(C#N)=C(N)O2 (stereo not shown) — viability (MTT; 25 µM): 53.4%
Cl.O[C@]12C=C(c3nccc4c3[nH]c3ccccc34)[C@@H]3CCN(CCCC/C=C\CC1)C[C@@]31C[C@@H]3/C=C\CCCCN3[C@H]12 — IC50 (cytotoxicity, neutral red; 48 h): 0.43 ± 0.17 µg/mL
COc1cc(C2C(C#N)=C(N)Oc3c2c(C)nn3-c2ccc(Cl)cc2)cc(OC)c1OC (stereo not shown) — viability (MTT; 100 µM): 48.4%
Cc1cc(C)c(/C=C/c2nc(N)[nH]c(=O)c2Br)c(C)c1 — minimum cytotoxic concentration (cell morphology alteration): 100 µM
O=C(Nc1ccccc1F)c1cc2c(=O)n3ccccc3nc2n1Cc1ccccc1 — viability (MTT; 6.3 µM, 24 (unit not given)): 60.6%
COc1ccc(C2C(C#N)=C(N)Oc3c2c(C)nn3-c2ccc(Cl)cc2)cc1 (stereo not shown) — viability (MTT; 25 µM): 59.8%
CC(C)C[C@H](NC(=O)[C@H](C)NC(=O)[C@@H](NC(=O)[C@H](CCCNC(=N)N)NC(=O)[C@H](CC(C)C)NC(=O)[C@H](Cc1c[nH]c2ccccc12)NC(=O)[C@@H]1CCCN1C(=O)[C@@H](N)CCCCN)C(C)C)C(=O)N[C@@H](CS)C(=O)N1CCC[C@H]1C(=O)NCC(=O)O — viability (WST-1; 8 µM, 24 h): 99.7% and 76% and 97.5%
Cc1ccc(NC(=O)c2cc3c(=O)n4cccc(C)c4nc3n2C)cc1Cl — viability (MTT; 1.6 µM, 24 (unit not given)): 78.3%
CC(C)(O)Cc1nc(N)[nH]c(=O)c1Br — minimum cytotoxic concentration (cell morphology alteration): > 100 µM
N#C[Se]CC1Cc2cccc(Oc3cccc(F)c3)c2O1 (racemic) — EC50 (cell viability, AlamarBlue): > 10 µM
O=C1COCCN1c1ccc(CO[C@@H]2COc3nc([N+](=O)[O-])cn3C2)cc1 — IC50 (cytotoxicity): > 100 µg/mL
NC(=O)c1ncn([C@@H]2O[C@H](CO)[C@@H](O)[C@H]2O)n1 — minimal cytotoxic concentration (measured: cell morphology): > 250 µM
O=C1CCCCN1c1ccc(CO[C@@H]2COc3nc([N+](=O)[O-])cn3C2)cc1 — IC50 (cytotoxicity): > 100 µg/mL
Cc1nn(-c2ccc(Cl)cc2)c2c1C(c1ccc(Cl)cc1)C(C#N)=C(N)O2 (stereo not shown) — viability (MTT; 100 µM): 45.6%
CCCCc1nc(N)[nH]c(=O)c1Br — minimum cytotoxic concentration (cell morphology alteration): > 100 µM
O=C1CSCCN1c1ccc(CO[C@@H]2COc3nc([N+](=O)[O-])cn3C2)cc1F — IC50 (cytotoxicity): > 100 µg/mL
Cc1nn(-c2ccc(Cl)cc2)c2c1C(c1ccc(Cl)cc1Cl)C(C#N)=C(N)O2 (stereo not shown) — viability (MTT; 100 µM): 46%
CC[C@H](C)C(=O)O[C@H]1C[C@@H](C)C=C2C=C[C@H](C)[C@H](CC[C@@H]3C[C@@H](O)CC(=O)O3)[C@H]21 — cytotoxicity (monolayer disruption; 83.2 µM): toxic

For quick reference, copied from above:
COc1ccc(C2C(C#N)=C(N)Oc3c2c(C)nn3-c2ccc(Cl)cc2)cc1 (stereo not shown) — viability (MTT; 25 µM): 59.8%
N#C[Se]CC1Cc2cccc(Oc3cccc(F)c3)c2O1 (racemic) — EC50 (cell viability, AlamarBlue): > 10 µM
O=C1CSCCN1c1ccc(CO[C@@H]2COc3nc([N+](=O)[O-])cn3C2)cc1 — IC50 (cytotoxicity): > 100 µg/mL
O=C1COCCN1c1ccc(CO[C@@H]2COc3nc([N+](=O)[O-])cn3C2)cc1 — IC50 (cytotoxicity): > 100 µg/mL
